Published values pooled from the literature.
Compare with care: the assays were run in different laboratories. Numbers after ± are the reported error.
ABO G235S/G268A/L266M/R176G: Histo-blood group ABO system transferase (ABO, Homo sapiens, UniProt P16442, G235S/G268A/L266M/R176G)
SLC10A2: Ileal sodium/bile acid cotransporter (SLC10A2, Homo sapiens, UniProt Q12908)
CHRM3: Muscarinic acetylcholine receptor M3 (CHRM3, Homo sapiens, UniProt P20309)

SMILES	tested on	test	system	conditions	scale	measurement	result
CCN(CCCC[C@H](NC(=O)[C@H](Cc1ccc(OC)c(OC)c1)NC(=O)[C@H](C)NC(=O)[C@H](CC1CCCCC1)NC(=O)c1ccc(Br)c(N)c1)C(=O)N[C@@H](CO)C(=O)OC)C(C)C	Chromobox protein homolog 3 (Homo sapiens, UniProt Q13185)	binding, item: CBX3	HEK-293T cell lysate	concentration not given	–	competition of probe pulldown	inhibited
CC[C@H](C)[C@@H]1NC(=O)[C@H](Cc2ccc(OC)cc2)NC(=O)CC2(CCCCC2)SSC[C@@H](C(=O)N2CCC[C@H]2C(=O)N[C@@H](CCCN)C(=O)N[C@@H](Cc2ccc(O)c(I)c2)C(N)=O)NC(=O)[C@H](CC(N)=O)NC(=O)[C@H]([C@@H](C)O)NC1=O	oxytocin receptor (Mesocricetus auratus, UniProt A0A1U7Q6Y0)	saturation binding	hamster brain sections	–	–	Bmax	2960 DPM/0.04 mg
CN(C)CCCCOc1ccc2cc(CN)ccc2c1	Primary amine oxidase, liver isozyme (Bos taurus, UniProt Q29437)	substrate, fluorescence	–	pH 7.2, 30 °C	–	kcat	0.05 ± 0.001 s⁻¹
CCC(=C(c1ccc(Cl)cc1)c1ccc(OCCN2CCCCC2)cc1)c1ccc(OC)cc1	Estrogen receptor (ESR1, Homo sapiens, UniProt P03372)	reporter gene, agonist, yeast estrogen screen	–	1 µM	reference: DMSO	fold activation	1.27 ± 0.04 fold
Nc1ncc(-c2nc(N3CCOCC3)nc(N3CCN(C(=O)CCC(=O)N4CCN(CCCCCCNc5cccc6c5C(=O)N(C5CCC(=O)NC5=O)C6=O)CC4)CC3)n2)c(C(F)F)n1 (stereo not drawn)	PIK3CA (Homo sapiens, UniProt P42336, E545K)	degrader, parallel reaction monitoring	MCF7	1 nM, 6 h	–	degradation	80%
C=CCCCCCCO[C@H]1O[C@H](CO)[C@H](O)[C@H](O[C@@H]2O[C@H](CO)[C@H](O)[C@H](O)[C@H]2O[C@@H]2O[C@@H](C)[C@@H](O)[C@@H](O)[C@@H]2O)[C@H]1NC(C)=O	ABO G235S/G268A/L266M/R176G	methyl-TROSY NMR titration lineshape analysis	–	apo enzyme	–	koff	700 ± 100 s⁻¹
Cn1c(-n2nccn2)nc2c(N)nc(NC(=O)c3ccccc3)nc21	ADORA2A (Homo sapiens, UniProt P29274)	radioligand displacement	HEK293 cell membranes	25 °C, together with: [3H]ZM241385	–	binding free energy	-9.12 ± 0.04 kcal/mol
CCCn1c(=O)c2[nH]c(-c3ccc(OCC(=O)NCCNC(=O)CCCCCNC(=O)COc4ccc(/C=C/C5=[N+]6C(=Cc7ccc(-c8cccs8)n7[B-]6(F)F)C=C5)cc4)cc3)nc2n(CCC)c1=O	ADORA1 (Homo sapiens, UniProt P30542)	CRE reporter gene, inverse agonist	CHO-A1	concentration not given, together with: forskolin	reference: forskolin alone	inverse agonist response	1.32 ± 0.04 fold increase
O=P(O)(O)O[C@@H]1[C@@H](O)[C@H](O)[C@H](O)[C@H](O)[C@H]1OP(=O)(O)O	Inositol 1,4,5-trisphosphate-gated calcium channel ITPR1, IP3-binding core (Itpr1, Rattus norvegicus, UniProt P29994, R568Q)	binding, 3H-IP3 competition	–	IP3-binding core, unit not given	reference: R568Q over wild type	ΔpKd	0.4 ± 0.14
O=C1Nc2ccccc2N(C(=O)CN2CCC(CCCCN3CCN(CCOC(=O)C4c5ccccc5Oc5ccccc54)CC3)CC2)c2ccccc21	CHRM1 (Homo sapiens, UniProt P11229)	ligand displacement, radioligand	–	–	–	Ki	3.39 nM
Cc1cc(C#CC2(O)CCCCC2)cc2c1cc(C(=O)O)n2-c1cccc(Cl)c1	Microphthalmia-associated transcription factor, residues 1-296 (Homo sapiens, UniProt O75030)	binding, isothermal titration calorimetry	–	25 °C	–	-TΔS	1.82 ± 0.932 kcal/mol
[3H]C([3H])([3H])c1cnccc1CN1C[C@@H](c2cc(F)c(F)c(F)c2)CC1=O	SV2A (Homo sapiens, UniProt Q7L0J3)	radioligand binding, saturation binding	frontal cortex homogenate	–	reference: Alzheimer disease over control	Bmax ratio	~1.12 fold
CCCCCCCCO[C@@H]1O[C@H](CO)[C@H](O)C[C@H]1O[C@@H]1O[C@@H](C)[C@@H](O)[C@@H](O)[C@@H]1O	ABO G235S/G268A/L266M/R176G	binding, methyl-TROSY NMR titration	–	together with: saturating UDP-Glc	–	kon	3.3e+06 M⁻¹ s⁻¹
O=C(Nc1cc(C(=O)Nc2ccc(S(=O)(=O)O)cc2)cc(C(=O)Nc2ccc(S(=O)(=O)O)cc2)c1)Nc1cc(C(=O)Nc2ccc(S(=O)(=O)O)cc2)cc(C(=O)Nc2ccc(S(=O)(=O)O)cc2)c1	Neutrophil elastase (ELANE, Homo sapiens, UniProt P08246)	enzyme activity, inhibitor, chromogenic substrate hydrolysis	–	pH 7.4, 37 °C, 100 mM NaCl, together with: substrate S-1384	–	maximal inhibition	104 ± 2.7%
CC(CCC(=O)NC(CCC(=O)Nc1cccnc1F)C(=O)O)C1CCC2C3C(O)CC4CC(O)CCC4(C)C3CCC12C (stereo not drawn)	SLC10A2	transport	MDCK expressing ASBT	–	reference: Ki over Kt	Ki over Kt	> 7 fold
CC(OCC1CCCCC1)C(NC(=O)C1CN(C(=O)c2cncs2)CC12CN(C(=O)C1CC1(C)C)C2)C(=O)N1CCOCC1 (stereo not drawn)	human cyclin E1 wild type:CDK2-NanoLuc	NanoBRET	HEK293T cell lysate	orthosteric site, together with: tracer K-10 0.2 µM	–	tracer displacement	no effect
O=C1c2ccc(O)cc2OC2c3cc(-c4coc5cc(O)ccc5c4=O)ccc3OC12c1ccc(O)cc1 (stereo not drawn)	PRXC1A (Armoracia rusticana, UniProt P00433)	substrate, Hill kinetic model	–	product formation, together with: hydrogen peroxide NG	–	Hill coefficient	0.827
CNCC=C(C)C=CC=CC=CC1=C(C)CCCC1(C)C	Rhodopsin (RHO, Homo sapiens, UniProt P08100, T289P)	immunoblot	661W rod opsin T289P	2.5 µM	reference: mature over immature	mature over immature ratio	~2

SMILES	tested on	test	system	conditions	scale	measurement	result
N=C(N)NCCC[C@@H]1NC(=O)[C@H](CCCCNC(=O)CC[C@H](NC(=O)CC[C@H](NC(=O)CN2CCN(CC(=O)O)CCN(CC(=O)O)CCN(CC(=O)O)CC2)C(=O)N[C@@H](CCC(=O)NCCCC[C@@H]2NC(=O)[C@@H](Cc3ccccc3)NC(=O)[C@H](CC(=O)O)NC(=O)CNC(=O)[C@H](CCCNC(=N)N)NC2=O)C(=O)NCCCC[C@@H]2NC(=O)[C@@H](Cc3ccccc3)NC(=O)[C@H](CC(=O)O)NC(=O)CNC(=O)[C@H](CCCNC(=N)N)NC2=O)C(=O)NCCCC[C@@H]2NC(=O)[C@@H](Cc3ccccc3)NC(=O)[C@H](CC(=O)O)NC(=O)CNC(=O)[C@H](CCCNC(=N)N)NC2=O)NC(=O)[C@@H](Cc2ccccc2)NC(=O)[C@H](CC(=O)O)NC(=O)CNC1=O [indium-111 labelled]	–	–	female athymic nu/nu mice, muscle	intravenous, 111 kBq, 24 h	–	tissue uptake	0.78 ± 0.19 %ID/g
CC(=O)N(Cc1ccccc1)[C@@H](C)C(=O)N(C)[C@@H](C)C(=O)N(Cc1c[nH]c2cc(Cl)ccc12)[C@@H](C)C(=O)N(C)[C@@H](C)C(=O)N(CCC(C)(C)C)[C@@H](C)C(=O)N1CCNCC1	E3 ubiquitin-protein ligase Mdm2, N-terminal domain 17-125 (MDM2, Homo sapiens, UniProt Q00987)	isothermal titration calorimetry	PBS	concentration not given, 25 °C	–	binding entropy term (-TΔS)	-0.59 kcal/mol
N=C(N)NCCC[C@H](NC(=O)[C@H](Cc1ccccc1)NC(=O)[C@@H](N)CO)C(=O)N[C@@H](CC(N)=O)C(N)=O	Neuropeptide S receptor (Mus musculus, UniProt Q8BZP8)	calcium mobilization, agonist	HEK293T	unit not given	reference: maximal assay window	maximal response	0.86
CCCCCCOc1ccc(C(=O)OCC[N+]2(C)CC=CCC2)cc1 (stereo not drawn)	CHRM3	recovery of [3H]NMS binding after washing	membranes	100 µM	–	dissociation half-time	4.1 ± 0.3 h
Nc1ncnc2c1ncn2C1OC(COP(=O)(O)OP(=O)(O)OCC2OC(O)C(O)C2O)C(O)C1O (stereo not drawn)	TRPM2 (Nematostella vectensis, UniProt A7T1N0, Y264A)	channel activation, agonist, inside-out patch clamp	–	Y264A, 2.5 µM PIP2, together with: 125 µM Ca2+	reference: wild type	EC50 fold increase	> 1000 fold
CCC(=C(c1ccc(O)cc1)c1ccc(OCCN(C)CCOCCOCCOCCOCCOCCOCCOCCN(C)CCOc2ccc(C(=C(CC)c3ccccc3)c3ccc(O)cc3)cc2)cc1)c1ccccc1 (mixture of isomers)	ESR2 (Homo sapiens, UniProt Q92731)	radioligand competition binding	–	concentration not given, Z-E/E isomer form, together with: [3H]estradiol tracer	reference: estradiol	relative binding affinity	9.48 ± 1.4%
CC[C@H]1[C@@H](O)[C@@H]2[C@H](CC[C@]3(C)[C@@H]([C@H](C)CCOS(=O)(=O)[O-])CC[C@@H]23)[C@@]2(C)CC[C@@H](O)C[C@@H]12.[Na+]	–	histology	ob/ob NASH mouse model, liver	oral, 10 mg/kg once daily, 8 weeks	direction not given	NAFLD activity score	3 ± 0.3
Cc1sc2c(c1C)C(c1ccc(Cl)cc1)=N[C@@H](CC(=O)NCCCCCCCCC(=O)N1CCN(C(=O)c3cc(Cc4n[nH]c(=O)c5ccccc45)ccc3F)CC1)c1nnc(C)n1-2	BRD4/PARP1 (Homo sapiens, UniProt O60885+P09874)	PARP1-BRD4 ternary complex, NanoBRET	HEK293T	2 h	–	concentration of peak signal	100 nM
O=C([O-])CN(CCN(CC(=O)[O-])Cc1cc(CCC(=O)NCCCCCC(=O)NCCCC[C@H](NC(=O)N[C@@H](CCC(=O)O)C(=O)O)C(=O)O)ccc1O)Cc1cc(CCC(=O)O)ccc1[O-].[68Ga+3]	FOLH1 (Homo sapiens, UniProt Q04609)	PET/CT	prostate cancer patients, bone metastases	60 min	reference: lesion SUVmax over muscle SUVmean	mean tumour-to-background ratio	45.8
CCN(CC)C(=O)c1ccc(O)c(OC)c1	Heat shock protein HSP 90-alpha, N-terminal domain (HSP90AA1, Homo sapiens, UniProt P07900)	binding, ligand-observed NMR titration	–	ligand to protein ratio 202	–	contrast	54%
COC(=O)C1=Cc2ccccc2S1(=O)=O	STAT3 (Homo sapiens, UniProt P40763)	inhibitor, immunoblotting	HepG2	up to 20 µM, together with: IL6	–	IL6-induced phosphorylation	no inhibition
CCNS(=O)(=O)c1ccc(COc2ccc3nc4ccc(=O)cc-4oc3c2)cc1	DDR2 (Homo sapiens, UniProt Q16832)	size exclusion chromatography, item: DDR2 extracellular domain	–	1 µM, 1 h	–	oligomer fraction	decreased
CCC(=O)NCc1cc(C(=O)NCCN2CCN(CCCCC3CCN(CC(=O)N4c5ccccc5NC(=O)c5ccccc54)CC3)CC2)cc(C(=O)NCCN2CCN(CCCCC3CCN(CC(=O)N4c5ccccc5NC(=O)c5ccccc54)CC3)CC2)c1	CHRM3	ligand displacement, radioligand	–	–	–	Ki	12.9 nM
O=C(OCc1cccc(O)c1O)c1ccc(O)c(CO)c1	XDH (Homo sapiens, UniProt P47989)	superoxide production, lucigenin chemiluminescence	–	–	–	antioxidant threshold concentration	> 50 µM
C[C@H](CCC(=O)N[C@@H](CCC(=O)Nc1ccc(O)cc1)C(=O)O)[C@H]1CC[C@H]2[C@@H]3[C@H](O)C[C@@H]4C[C@H](O)CC[C@]4(C)[C@H]3CC[C@]12C	SLC10A2	transport, substrate	ASBT-MDCK cells	unit not given	reference: taurocholate Jmax	Jmax	0.437
CCCNC(=O)NC1CC=C(c2cc3c(Nc4cc5ncsc5cc4F)ncnc3s2)CC1 (racemic)	RIPK1 (Homo sapiens, UniProt Q13546)	enzyme activity	–	1 µM	reference: untreated	remaining activity	97 ± 1%
CC(C)CC(NC(=O)C(NC(=O)NC(C(=O)O)C(C)C)C1CCNC(=N)N1)C(=O)NCCCNC(C(=O)O)C(OC1OC(CN)C(O)C1O)C1OC(n2ccc(=O)[nH]c2=O)C(O)C1O (stereo not drawn)	mraY (Aquifex aeolicus, UniProt O66465, K70A)	ITC	–	K70A mutant	–	ΔS	9.8 ± 0.7 cal/mol/K
CCCC[C@H](NC(=O)CNC(=O)CNC(=O)CN1CCN(CC(=O)O)CCN(CC(=O)O)CC1)C(=O)N[C@H]1CC(=O)NCCCC[C@@H](C(N)=O)NC(=O)[C@H](Cc2c[nH]c3ccccc23)NC(=O)[C@H](CCCNC(=N)N)NC(=O)[C@@H](Cc2ccccc2)NC(=O)[C@H](Cc2c[nH]cn2)NC1=O [technetium-99m labelled]	–	–	C57 mouse, spleen	iv, 0.037 MBq, 0.5 h	–	tissue uptake	0.76 ± 0.48 %ID/g

A few entries again:
SMILES	tested on	test	system	conditions	scale	measurement	result
CC(=O)N(Cc1ccccc1)[C@@H](C)C(=O)N(C)[C@@H](C)C(=O)N(Cc1c[nH]c2cc(Cl)ccc12)[C@@H](C)C(=O)N(C)[C@@H](C)C(=O)N(CCC(C)(C)C)[C@@H](C)C(=O)N1CCNCC1	E3 ubiquitin-protein ligase Mdm2, N-terminal domain 17-125 (MDM2, Homo sapiens, UniProt Q00987)	isothermal titration calorimetry	PBS	concentration not given, 25 °C	–	binding entropy term (-TΔS)	-0.59 kcal/mol
N=C(N)NCCC[C@H](NC(=O)[C@H](Cc1ccccc1)NC(=O)[C@@H](N)CO)C(=O)N[C@@H](CC(N)=O)C(N)=O	Neuropeptide S receptor (Mus musculus, UniProt Q8BZP8)	calcium mobilization, agonist	HEK293T	unit not given	reference: maximal assay window	maximal response	0.86
CCCCCCOc1ccc(C(=O)OCC[N+]2(C)CC=CCC2)cc1 (stereo not drawn)	CHRM3	recovery of [3H]NMS binding after washing	membranes	100 µM	–	dissociation half-time	4.1 ± 0.3 h
Nc1ncnc2c1ncn2C1OC(COP(=O)(O)OP(=O)(O)OCC2OC(O)C(O)C2O)C(O)C1O (stereo not drawn)	TRPM2 (Nematostella vectensis, UniProt A7T1N0, Y264A)	channel activation, agonist, inside-out patch clamp	–	Y264A, 2.5 µM PIP2, together with: 125 µM Ca2+	reference: wild type	EC50 fold increase	> 1000 fold
